Results gathered from unrelated publications.
± gives the spread as reported.
CNR1: Cannabinoid receptor 1 (CNR1, Homo sapiens, UniProt P21554)
DRD2: D(2) dopamine receptor (DRD2, Homo sapiens, UniProt P14416)
Oprd1: Delta-type opioid receptor (Oprd1, Rattus norvegicus, UniProt P33533)
DRD3: D(3) dopamine receptor (DRD3, Homo sapiens, UniProt P35462)

Structure (SMILES) = CCCCCCn1c2ccccc2c2cc(C(=O)c3cccc4ccccc34)ccc21; target = CNR1; assay = cAMP inhibition, agonist, BRET; test system = HEK293 expressing CNR1; setting = added: forskolin; scale = relative to: forskolin alone; Emax = 33.4%
Structure (SMILES) = CCCN(CCC)C1CCc2ccc(O)cc2C1 (racemic); target = DRD2; assay = cell-based; Emax = 106%
Structure (SMILES) = CC[C@H](C)[C@H](NC(=O)[C@@H]1CCCN1C(=O)[C@H](Cc1c[nH]cn1)NC(=O)[C@@H](NC(=O)[C@H](Cc1ccc(O)cc1)NC(=O)[C@@H](NC(=O)[C@H](CCCNC(=N)N)NC(=O)CNC)C(C)C)[C@@H](C)CC)C(=O)O; target = Type-1 angiotensin II receptor (AGTR1, Homo sapiens, UniProt P30556); assay = β-arrestin 2 recruitment, agonist; test system = U2OS cells; setting = 90 min, 37 °C; Emax = 31 ± 2%
Structure (SMILES) = CC[C@H](C)[C@H](NC(=O)[C@H](Cc1ccccc1)NC(=O)[C@@H]1CCCN1C(=O)[C@H](CCCCN)NC(=O)[C@H](CCCCN)NC(=O)[C@H](Cc1ccccc1)NC(=O)[C@H](Cc1ccccc1)NC(=O)[C@@H](C)NC(=O)[C@@H](N)Cc1ccc(O)cc1)C(=O)N[C@@H](CC(C)C)C(=O)O; target = DRD2; assay = GTPγS binding, agonist, radiometric; setting = cell membranes; Emax = 117%
Structure (SMILES) = Cc1cc(O)cc(C)c1C[C@H](N)C(=O)N[C@@H](C(=O)NCC(=O)N[C@@H](Cc1ccc2ccccc2c1)C(=O)N[C@@H](CC(C)C)C(=O)N[C@@H](CO)C(N)=O)[C@H](C)O; target = Oprd1; assay = GTPγS binding, agonist, radiometric; setting = cell membranes; Emax = 164%
Structure (SMILES) = CCCC[C@H](NC(=O)[C@H](Cc1ccccc1)NC(=O)CNC(=O)[C@@H](C)NC(=O)[C@@H](N)Cc1ccc(O)cc1)C(=O)N1CCC[C@H]1C(=O)N[C@@H](CC(C)C)C(=O)N[C@@H](CO[C@@H]1O[C@H](CO)[C@@H](O)[C@H](O)[C@H]1O)C(=O)N[C@@H](Cc1c[nH]c2ccccc12)C(=O)NCc1cc(C(F)(F)F)cc(C(F)(F)F)c1; target = Mu-type opioid receptor (OPRM1, Cavia porcellus, UniProt P97266); assay = smooth muscle contraction inhibition, agonist; test system = guinea pig ileum; scale = relative to: PL-017; Emax = 93.7 ± 4.1%
Structure (SMILES) = CNC(C)CCc1ccccc1Cl (racemic); target = DRD3; assay = agonist; scale = relative to: PD128907; Emax = 66.1 ± 6.5%
Structure (SMILES) = O=C(c1ccc2c(c1)c1ccccc1n2CC1CCOCC1)c1cccc2ccccc12; target = CNR1; assay = cAMP inhibition, agonist, BRET; test system = HEK293 expressing CNR1; setting = added: forskolin; scale = relative to: forskolin alone; Emax = 57.8%
Structure (SMILES) = CC(N)CCc1ccccc1Cl (racemic); target = DRD3; assay = agonist; scale = relative to: PD128907; Emax = 57.3 ± 2.5%
Structure (SMILES) = CN1CCCCC1Cn1c2ccccc2c2cc(C(=O)c3cccc4ccccc34)ccc21 (stereo not drawn); target = CNR1; assay = GTPγS binding, agonist; setting = cell membranes; Emax = 171%
Structure (SMILES) = CCCCCCCCCCCCCCCCSCc1cc2cc(c1)CSC[C@H](N)C(=O)NCCCCCC(=O)N[C@@H](Cc1ccccc1)C(=O)N[C@@H](CC(C)C)C(=O)N[C@@H](Cc1ccccc1)C(=O)N[C@@H](CCCNC(=N)N)C(=O)N1[C@@H](C[C@@H]3CCCC[C@@H]31)C(=O)N[C@@H](CCCNC(=N)N)C(=O)N[C@@H](CC(N)=O)C(=O)NCCCCCC(=O)N[C@H](C(N)=O)CSC2; target = Neuromedin-U receptor 2 (NMUR2, Homo sapiens, UniProt Q9GZQ4); assay = calcium signalling, agonist; test system = HEK293 expressing receptor; setting = 10 µM; scale = relative to: human NmU; Emax = 118 ± 4.8%
Structure (SMILES) = CC(=O)OCCCCCn1c2ccccc2c2cc(C(=O)c3cccc4ccccc34)ccc21; target = CNR1; assay = GTPγS binding, agonist; setting = cell membranes; Emax = 69.7%
Structure (SMILES) = CC(C)C[C@H](NC(=O)[C@H](Cc1cccc2ccccc12)NC(=O)CNC(=O)[C@H](NC(=O)[C@@H](N)Cc1ccc(O)cc1)[C@H](C)O)C(=O)N[C@@H](CO)C(N)=O; target = Oprd1; assay = GTPγS binding, agonist, radiometric; setting = cell membranes; Emax = 144%
Structure (SMILES) = O=C(c1ccc2c(c1)c1ccccc1n2CCN1CCCCC1)c1cccc2ccccc12; target = CNR1; assay = cAMP inhibition, agonist, BRET; test system = HEK293 expressing CNR1; setting = added: forskolin; scale = relative to: forskolin alone; Emax = 33.4%
Structure (SMILES) = O=C1C[C@H](c2nc(-c3ccc(F)c4cn[nH]c34)no2)CCCN1c1ccc(F)cc1 (racemic); target = Cannabinoid receptor 2 (CNR2, Homo sapiens, UniProt P34972); assay = cAMP, agonist, luciferase; test system = CHO; Emax = 97.8%

Excerpt of the above:
Structure (SMILES) = CCCN(CCC)C1CCc2ccc(O)cc2C1 (racemic); target = DRD2; assay = cell-based; Emax = 106%
